Measured values gathered from unrelated publications.
Each line is one published result; not all experiments were run side by side.
U2AF2: U2AF2 148-342 (Homo sapiens, UniProt P26368)
UniProt P26368, sequence (whole entry, looked up): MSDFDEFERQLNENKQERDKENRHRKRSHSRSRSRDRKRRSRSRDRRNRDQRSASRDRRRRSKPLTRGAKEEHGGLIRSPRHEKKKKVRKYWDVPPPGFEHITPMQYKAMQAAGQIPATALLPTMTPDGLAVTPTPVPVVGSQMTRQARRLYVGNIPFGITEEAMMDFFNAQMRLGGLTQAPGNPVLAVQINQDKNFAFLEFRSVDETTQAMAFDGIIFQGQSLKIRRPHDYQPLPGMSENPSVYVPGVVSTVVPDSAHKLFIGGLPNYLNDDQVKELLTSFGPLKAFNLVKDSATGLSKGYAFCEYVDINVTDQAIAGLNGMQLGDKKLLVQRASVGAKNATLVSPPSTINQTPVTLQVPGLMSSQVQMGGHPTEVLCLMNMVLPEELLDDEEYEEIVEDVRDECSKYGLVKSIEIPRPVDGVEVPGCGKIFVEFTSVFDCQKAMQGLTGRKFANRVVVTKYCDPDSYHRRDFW
B1: EHI_164900 (Entamoeba histolytica, UniProt C4M1Y3); sequence looked up; chain MSDTKETVPTNNEEKLDIEPKKDIKEEVKPEEEHKEEEHKEEKPEEVKPEEVKPEEVKPEEVKPEEEKKNESNEQQKVKVIMVGESSVGKTCCMNRYVSNEFAEQTKATIGVGVGSKEVEVEGKHIKLQIWDTAGQERFATLTGNYFRNAMAAIIMFDVSNKESFENIPNWVEQCCKSDGKHIIFIAGNKIDLENRVVSKEEAEEKAKELKLKYFEVSAKTGDGIEDLFNELIKEIMKTPFCNEQEKEGVELDGQKKQKKGGCC
B2: Gm4951 F194A (Mus musculus, UniProt Q3UED7); sequence looked up; chain MGQLFSSRRSEDQDLSSSFIEYLKECEKGINIIPHEIITSIEINMKKGNIQEVNSTVRDMLREIDNTPLNVALTGETGSGKSSFINTLRGIGHEEGGAAHTGVTDKTKERHPYEHPKMPNVVFWDLPGTGSEDFQPKTYLEKMKFYEYDFFIIISATRFKKNDIDLAKAIGIMKKEFYFVRTQVDSDLRNEEDAKPQTFDREKVLQDIRLNCVNTFRENGIAEPPIFLISNKNVCHYDFPVLMDKLISDLPVFKRQNFMFSLPNITDSVIEKKRNFLRWKTWLEGFADGLLSFFLESDLETLEKSMKFYRTVFGVDDASLQRLARAWEIDQVDQVRAMIKSPAVFTPTDEETIQERLSRYNQEFCLANGYLLPKNHCREILYLKLYFLDMVTEDAKTLLKEICLRN
B3: DNAJB8 F148S (Homo sapiens, UniProt Q8NHS0); sequence looked up; chain MANYYEVLGVQASASPEDIKKAYRKLALRWHPDKNPDNKEEAEKKFKLVSEAYEVLSDSKKRSLYDRAGCDSWRAGGGASTPYHSPFDTGYTFRNPEDIFREFFGGLDPFSFEFWDSPFNSDRGGRGHGLRGAFSAGFGEFPAFMEASSSFNMLGCSGGSHTTFSSTSFGGSSSGSSGFKSVMSSTEMINGHKVTTKRIVENGQERVEVEEDGQLKSVTVNGKEQLKWMDSK
B4: C1S 16-292 (Homo sapiens, UniProt P09871); chain EPTMYGEILSPNYPQAYPSEVEKSWDIEVPEGYGIHLYFTHLDIELSENCAYDSVQIISGDTEEGRLCGQRSSNNPHSPIVEEFQVPYNKLQVIFKSDFSNEERFTGFAAYYVATDINECTDFVDVPCSHFCNNFIGGYFCSCPPEYFLHDDMKNCGVNCSGDVFTALIGEIASPNYPKPYPENSRCEYQIRLEKGFQVVVTLRREDFDVEAADSAGNCLDSLVFVAGDRQFGPYCGHGFPGPLNIETKSNALDIIFQTDLTGQKKGWKLRYHGDPM
B5: racE (Dictyostelium discoideum, UniProt Q23862); pS192; sequence looked up; chain MSEDQGSGATRVKLVVVGDGAVGKTCLLICYAQNDFPVDYVPTVFENYTATRKRGNEDIKVHLWDTAGQEEYDRLRPLSYPGADVVLLCFSTISQSSYEAIRDKWAPEVNHYIPDVPSILVGTKIDLREQQHPDPNSGKFEPITADMGISMQKQIKAKKYLEVSAKTRQGLEEVFSAAIEIVLESRGMDKKSQDGSSSASGVPSGDKPTKGKAGKKKSGCIIL
B6: tas3 426-545 (Schizosaccharomyces pombe, UniProt O94687); sequence looked up; chain NPLASLTTDKNDLYINWLKSLSFFQTNSSCAEALVKVIPHYHNKLIDFSQVLQLVFSASEKFPIQENQPLPEQLMFLSNLEKQTPFAKAVGSSIYKLVTGKNLSLDFASQILKEASILEH
B7: TOP2 C180A/C731A/K1134C (Saccharomyces cerevisiae, UniProt P06786); AlexaFluor 488/546 labels; sequence looked up; chain MSTEPVSASDKYQKISQLEHILKRPDTYIGSVETQEQLQWIYDEETDCMIEKNVTIVPGLFKIFDEILVNAADNKVRDPSMKRIDVNIHAEEHTIEVKNDGKGIPIEIHNKENIYIPEMIFGHLLTSSNYDDDEKKVTGGRNGYGAKLCNIFSTEFILETADLNVGQKYVQKWENNMSIAHPPKITSYKKGPSYTKVTFKPDLTRFGMKELDNDILGVMRRRVYDINGSVRDINVYLNGKSLKIRNFKNYVELYLKSLEKKRQLDNGEDGAAKSDIPTILYERINNRWEVAFAVSDISFQQISFVNSIATTMGGTHVNYITDQIVKKISEILKKKKKKSVKSFQIKNNMFIFINCLIENPAFTSQTKEQLTTRVKDFGSRCEIPLEYINKIMKTDLATRMFEIADANEENALKKSDGTRKSRITNYPKLEDANKAGTKEGYKCTLVLTEGDSALSLAVAGLAVVGRDYYGCYPLRGKMLNVREASADQILKNAEIQAIKKIMGLQHRKKYEDTKSLRYGHLMIMTDQDHDGSHIKGLIINFLESSFPGLLDIQGFLLEFITPIIKVSITKPTKNTIAFYNMPDYEKWREEESHKFTWKQKYYKGLGTSLAQEVREYFSNLDRHLKIFHSLQGNDKDYIDLAFSKKKADDRKEWLRQYEPGTVLDPTLKEIPISDFINKELILFSLADNIRSIPNVLDGFKPGQRKVLYGCFKKNLKSELKVAQLAPYVSEATAYHHGEQSLAQTIIGLAQNFVGSNNIYLLLPNGAFGTRATGGKDAAAARYIYTELNKLTRKIFHPADDPLYKYIQEDEKTVEPEWYLPILPMILVNGAEGIGTGWSTYIPPFNPLEIIKNIRHLMNDEELEQMHPWFRGWTGTIEEIEPLRYRMYGRIEQIGDNVLEITELPARTWTSTIKEYLLLGLSGNDKIKPWIKDMEEQHDDNIKFIITLSPEEMAKTRKIGFYERFKLISPISLMNMVAFDPHGKIKKYNSVNEILSEFYYVRLEYYQKRKDHMSERLQWEVEKYSFQVKFIKMIIEKELTVTNKPRNAIIQELENLGFPRFNKEGKPYYGSPNDEIAEQINDVKGATSDEEDEESSHEDTENVINGPEELYGTYEYLLGMRIWSLTKERYQKLLCQKQEKETELENLLKLSAKDIWNTDLKAFEVGYQEFLQRDAEARGGNVPNKGSKTKGKGKRKLVDDEDYDPSKKNKKSTARKGKKIKLEDKNFERILLEQKLVTKSKAPTKIKKEKTPSVSETKTEEEENAPSSTSSSSIFDIKKEDKDEGELSKISNKFKKISTIFDKMGSTSATSKENTPEQDDVATKKNQTTAKKTAVKPKLAKKPVRKQQKVVELSGESDLEILDSYTDREDSNKDEDDAIPQRSRRQRSSRAASVPKKSYVETLELSDDSFIEDDEEENQGSDVSFNEED
B8: clcA C85A/H234C/R230C/L249C (Escherichia coli, UniProt P37019); chain MKTDTPSLETPQAARLRRRQLIRQLLERDKTPLAILFMAAVVGTLVGLAAVAFDKGVAWLQNQRMGALVHTADNYPLLLTVAFLASAVLAMFGYFLVRKYAPEAGGSGIPEIEGALEDQRPVRWWRVLPVKFFGGLGTLGGGMVLGREGPTVQIGGNIGRMVLDIFRLKGDEARHTLLATGAAAGLAAAFNAPLAGILFIIEEMRPQFRYTLISIKAVFIGVIMSTIMYCIFNCEVALIDVGKLSDAPCNTLWLYLILGIIFGIFGPIFNKWVLGMQDLLHRVHGGNITKWVLMGGAIGGLCGLLGFVAPATSGGGFNLIPIATAGNFSMGMLVFIFVARVITTLLCFSSGAPGGIFAPMLALGTVLGTAFGMVAVELFPQYHLEAGTFAIAGMGALLAASIRAPLTGIILVLEMTDNYQLILPMIITGLGATLLAQFTGGKPLYSAILARTLAKQEAEQLARSKAASASENT
B9: SPOP G128S (Homo sapiens, UniProt O43791); sequence looked up; chain MSRVPSPPPPAEMSSGPVAESWCYTQIKVVKFSYMWTINNFSFCREEMGEVIKSSTFSSGANDKLKWCLRVNPKGLDEESKDYLSLYLLLVSCPKSEVRAKFKFSILNAKGEETKAMESQRAYRFVQSKDWGFKKFIRRDFLLDEANGLLPDDKLTLFCEVSVVQDSVNISGQNTMNMVKVPECRLADELGGLWENSRFTDCCLCVAGQEFQAHKAILAARSPVFSAMFEHEMEESKKNRVEINDVEPEVFKEMMCFIYTGKAPNLDKMADDLLAAADKYALERLKVMCEDALCSNLSVENAAEILILADLHSADQLKTQAVDFINYHASDVLETSGWKSMVVSHPHLVAEAYRSLASAQCPFLGPPRKRLKQS
B10: IL2 mature Y45A (Bos taurus, UniProt P05016); sequence looked up; chain APTSSSTGNTMKEVKSLLLDLQLLLEKVKNPENLKLSRMHTFDFAVPKVNATELKHLKCLLEELKLLEEVLNLAPSKNLNPREIKDSMDNIKRIVLELQGSETRFTCEYDDATVNAVEFLNKWITFCQSIYSTMT
B11: SPOP R70Q (Homo sapiens, UniProt O43791); sequence looked up; chain MSRVPSPPPPAEMSSGPVAESWCYTQIKVVKFSYMWTINNFSFCREEMGEVIKSSTFSSGANDKLKWCLQVNPKGLDEESKDYLSLYLLLVSCPKSEVRAKFKFSILNAKGEETKAMESQRAYRFVQGKDWGFKKFIRRDFLLDEANGLLPDDKLTLFCEVSVVQDSVNISGQNTMNMVKVPECRLADELGGLWENSRFTDCCLCVAGQEFQAHKAILAARSPVFSAMFEHEMEESKKNRVEINDVEPEVFKEMMCFIYTGKAPNLDKMADDLLAAADKYALERLKVMCEDALCSNLSVENAAEILILADLHSADQLKTQAVDFINYHASDVLETSGWKSMVVSHPHLVAEAYRSLASAQCPFLGPPRKRLKQS
B12: dlg1 1-97 Y18G (Drosophila melanogaster, UniProt P31007); sequence looked up; chain MPVKKQEAHRALELLEDGHARLSEPQDRALRIAIERVIRIFKSRLFQALLDIQEFYELTLLDDSKSIQQKTAETLQIATKWEKDGQAVKIADFIKSS
UniProt Q08345, sequence (whole entry, unmodified, looked up): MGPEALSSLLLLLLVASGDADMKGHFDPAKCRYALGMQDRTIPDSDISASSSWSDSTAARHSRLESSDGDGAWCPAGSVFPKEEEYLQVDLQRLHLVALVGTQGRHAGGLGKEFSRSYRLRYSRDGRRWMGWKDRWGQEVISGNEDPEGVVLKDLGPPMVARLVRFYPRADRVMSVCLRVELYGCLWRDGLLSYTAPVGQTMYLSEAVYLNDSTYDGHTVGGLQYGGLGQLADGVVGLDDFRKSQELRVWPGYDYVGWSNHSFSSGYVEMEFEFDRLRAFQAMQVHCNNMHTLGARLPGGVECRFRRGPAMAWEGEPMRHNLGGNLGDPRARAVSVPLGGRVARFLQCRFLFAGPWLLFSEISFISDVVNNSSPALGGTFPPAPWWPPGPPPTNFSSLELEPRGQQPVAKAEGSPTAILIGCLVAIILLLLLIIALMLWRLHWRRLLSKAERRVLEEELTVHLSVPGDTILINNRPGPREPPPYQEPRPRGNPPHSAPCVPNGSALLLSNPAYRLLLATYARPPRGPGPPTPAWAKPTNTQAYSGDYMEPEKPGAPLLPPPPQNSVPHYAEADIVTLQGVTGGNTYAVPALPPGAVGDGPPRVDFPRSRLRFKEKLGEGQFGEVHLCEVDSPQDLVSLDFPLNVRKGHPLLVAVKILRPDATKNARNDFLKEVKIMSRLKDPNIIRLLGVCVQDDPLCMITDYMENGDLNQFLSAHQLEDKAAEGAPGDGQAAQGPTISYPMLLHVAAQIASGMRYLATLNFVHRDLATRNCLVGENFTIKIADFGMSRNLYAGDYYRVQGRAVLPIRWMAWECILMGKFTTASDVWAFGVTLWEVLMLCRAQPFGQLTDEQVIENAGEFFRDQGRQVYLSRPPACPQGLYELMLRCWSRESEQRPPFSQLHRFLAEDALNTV

| Substance | target or system | test | system | conditions | endpoint | result |
| --- | --- | --- | --- | --- | --- | --- |
| UUUUUGGAU (ssRNA) | U2AF2 | sequencing of bound RNA | RNA | motif only | Kd | 3.2 µM |
| B1 (EHI_164900) | itself | immunoblot | – | – | binding | binds |
| GSPTAILIGSLVAIILLLLLIIALVLWRLHWRR (DDR1 413-445 C422S/M437V (Homo sapiens, UniProt Q08345); sequence looked up) | itself | SDS-PAGE | – | – | binding | binds |
| MDKVQYLTRSAIRRASTIEMPQQARQNLQNLFINFCLILICLLLICIIVMLL (PLN (Sus scrofa, UniProt P61013); pS16; sequence looked up) | itself | immunoblot SDS-PAGE | – | – | binding | binds |
| B2 (Gm4951 F194A) | itself | mass photometry | – | – | binding | binds |
| B3 (DNAJB8 F148S) | itself | dynamic light scattering | – | pH 7.4, room temperature | binding | binds |
| B4 (C1S 16-292) | itself | cryo-EM | – | – | binding | binds |
| B5 (racE) | itself | SEC | – | – | binding | binds |
| B6 (tas3 426-545) | itself | crystal structure | – | – | binding | binds |
| B7 (TOP2 C180A/C731A/K1134C) | itself | FRET or BRET | – | with: ADP, ATP, ADPNP | binding | binds |
| CGCUUUAGG (ssRNA) | U2AF2 | sequencing of bound RNA | RNA | motif only | Kd | 3.69 µM |
| B8 (clcA C85A/H234C/R230C/L249C) | itself | FRET | – | – | binding | binds |
| QSQSGYSQSYGGYEN (TAF15 58-72 (Homo sapiens, UniProt Q92804); N-acetyl/C-amide; sequence looked up) | itself | negative-stain TEM | peptide | peptide | binding | binds |
| B9 (SPOP G128S) | itself | negative-stain TEM | – | – | binding | binds |
| B10 (IL2 mature Y45A) | itself | SDS-PAGE | – | – | binding | binds |
| B11 (SPOP R70Q) | itself | negative-stain TEM | – | – | binding | binds |
| B12 (dlg1 1-97 Y18G) | itself | SEC | – | – | binding | binds |

Excerpt of the above:
| Substance | target or system | test | system | conditions | endpoint | result |
| --- | --- | --- | --- | --- | --- | --- |
| B3 (DNAJB8 F148S) | itself | dynamic light scattering | – | pH 7.4, room temperature | binding | binds |
